Published values pooled from the literature.
Each numbered part is a random draw from the data of one study; scales do not carry over between parts.

Study 1 — method: RNAcompete; form: RNA; medium: in vitro; tested at: 20 nM; setting: 7-mer, probes averaged, single round; relative to: mean of 7-mers; reading: higher = stronger binding
Target: PABPC1L2, full length, GST fusion (mouse, UniProt A0ABA7IW68)
Target sequence (chain): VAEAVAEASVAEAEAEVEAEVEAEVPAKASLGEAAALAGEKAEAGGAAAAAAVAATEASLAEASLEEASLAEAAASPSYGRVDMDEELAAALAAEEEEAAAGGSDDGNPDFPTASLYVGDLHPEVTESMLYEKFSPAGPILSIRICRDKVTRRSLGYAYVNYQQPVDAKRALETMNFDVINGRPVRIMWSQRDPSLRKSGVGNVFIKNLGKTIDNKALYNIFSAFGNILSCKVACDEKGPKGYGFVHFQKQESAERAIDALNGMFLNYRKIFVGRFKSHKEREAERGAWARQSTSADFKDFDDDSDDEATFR
Sequence	7-mer Z-score
ACCGAGC	-0.117
CUGUAUU	-0.309
CAACUGG	-0.146
CAAUUAA	0.245
UGCUUGG	-0.177
AUAGAUA	0.066

Study 2 — method: universal PBM; form: double-stranded DNA, one strand shown; medium: in vitro; tested at: 600 nM; reading: higher = stronger binding
Target: Sal-like protein 4, full length isoform A (SALL4, Homo sapiens, UniProt Q9UJQ4, residues 1-1053)
Chain of UniProt Q9UJQ4 (whole entry, looked up): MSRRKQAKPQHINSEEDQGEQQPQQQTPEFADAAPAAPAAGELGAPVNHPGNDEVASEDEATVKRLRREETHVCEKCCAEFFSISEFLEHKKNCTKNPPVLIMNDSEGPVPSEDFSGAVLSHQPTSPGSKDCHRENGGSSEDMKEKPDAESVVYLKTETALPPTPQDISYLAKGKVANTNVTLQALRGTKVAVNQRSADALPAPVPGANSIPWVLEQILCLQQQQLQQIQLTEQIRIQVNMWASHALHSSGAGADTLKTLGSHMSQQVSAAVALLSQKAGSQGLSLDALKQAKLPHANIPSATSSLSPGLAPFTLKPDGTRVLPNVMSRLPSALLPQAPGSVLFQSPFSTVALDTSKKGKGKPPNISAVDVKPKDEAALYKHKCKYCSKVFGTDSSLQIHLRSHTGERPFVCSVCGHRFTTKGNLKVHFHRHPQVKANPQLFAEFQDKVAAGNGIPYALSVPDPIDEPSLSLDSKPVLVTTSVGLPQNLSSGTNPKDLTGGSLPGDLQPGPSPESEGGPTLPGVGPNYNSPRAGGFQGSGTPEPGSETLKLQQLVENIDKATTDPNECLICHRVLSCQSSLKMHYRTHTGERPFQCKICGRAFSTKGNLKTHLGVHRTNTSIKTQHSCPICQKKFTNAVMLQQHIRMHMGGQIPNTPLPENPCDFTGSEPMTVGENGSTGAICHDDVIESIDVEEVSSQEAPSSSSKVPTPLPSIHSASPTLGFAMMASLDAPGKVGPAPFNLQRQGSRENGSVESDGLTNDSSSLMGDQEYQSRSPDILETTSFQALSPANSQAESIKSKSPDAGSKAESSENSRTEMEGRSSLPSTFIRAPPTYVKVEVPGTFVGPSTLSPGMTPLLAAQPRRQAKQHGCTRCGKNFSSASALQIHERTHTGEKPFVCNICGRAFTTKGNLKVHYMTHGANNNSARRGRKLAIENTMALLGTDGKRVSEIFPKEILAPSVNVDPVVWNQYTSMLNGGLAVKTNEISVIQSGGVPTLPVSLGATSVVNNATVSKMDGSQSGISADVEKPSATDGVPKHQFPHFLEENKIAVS
Setting: 8-mer, flanks averaged, mean of replicates
Sequence	E-score
TATAAACA	0.352
CTCTTAAG	0.0617
CCTCGTAC	0.0243
ACACCAAT	0.149
ATAGTCCA	0.11
ATAGAAGC	0.188
TACGAGCA	0.0088
GGTCATAC	-0.0418
GATCGGGA	-0.251
TGGGAACA	-0.138
CATCCTTA	-0.00457

Study 3 — method: competition protein-binding microarray; form: double-stranded DNA, one strand shown; medium: in vitro; tested at: 2 µM; added: Cbf1 competitor, 0.05 µM; reading: higher = stronger binding; all sequences stand within: … GTCTTGATTCGCTTGACGCTGCTG
Target: Phosphate system positive regulatory protein PHO4, full length, GST-tagged (PHO4, Saccharomyces cerevisiae, UniProt P07270, residues 1-312)
Setting: whole 60-bp probe, lowest competitor level
Construct (chain): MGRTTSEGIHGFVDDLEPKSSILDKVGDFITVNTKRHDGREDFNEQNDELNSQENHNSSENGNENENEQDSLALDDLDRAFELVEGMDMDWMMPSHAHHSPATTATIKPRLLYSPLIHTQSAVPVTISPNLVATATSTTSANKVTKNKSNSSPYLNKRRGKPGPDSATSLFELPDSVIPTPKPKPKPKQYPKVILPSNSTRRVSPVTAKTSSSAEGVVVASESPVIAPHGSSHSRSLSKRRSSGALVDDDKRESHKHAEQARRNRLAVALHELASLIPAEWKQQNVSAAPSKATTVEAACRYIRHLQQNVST
Sequence	fluorescence intensity [a.u.]
CTTTCCCGATCTTGCGTTGTGGGTGTAGCACATTTG	5810
CTCGATCTACCGTTCCACGTGACTCGTCCAAGGATT	14100
CTTCTGTAAATTTGCAGCGTGGGTGGACGCGCCCCG	8080
TCAATAAAATCAAGTCATTCATTGATACGAAGTTGA	3090
CTAACGAAGGTTTTTCACGTGTGATACAAGCCAAGT	12600
TGCGCAACAACTTGTCACGTGACTTTATGTCTAGAA	11800

Mixed results
Substance	target	test	test system	conditions	scale	endpoint	value
PhoQ, residues 284 288 289 292 302 303 SQSLSM	PhoP, residues 12 14 15 18 19 LHHSG (Escherichia coli, UniProt P23836)	Sort-seq, refers to: YFP reporter	E. coli	PhoQ-PhoP variant library, added: 10 µM Mg2+	relative to: high Mg2+ state, higher = stronger signaling	fold induction	16

A few entries again (study 2):
Sequence	E-score
GATCGGGA	-0.251
TGGGAACA	-0.138
